Assay results of several laboratories.
Protocols differ between the studies behind these lines. ± gives the spread as reported.

`O=C(O)CCC(=O)O.[2H]C([2H])([2H])Oc1cc(C)c2[nH]ccc2c1CN1CC[C@@H](C2CC2)C[C@H]1c1ccc(C(=O)O)cc1` gave a Cmax of 1590 ng/mL (LC-MS/MS, geometric mean; human, plasma; 100 mg, single dose, fasting).
`Cl.[2H]C([2H])([2H])CC(=O)c1cnc(NC(=O)C2CC2)cc1Nc1cccc(-c2ncn(C([2H])([2H])[2H])n2)c1OC` has a Cmax of 433 ng/mL (geometric mean; human; oral, 40 mg twice daily, day 7, fed, liquid, multiple dose).
`CO[C@H]1C[C@@H]2CC[C@@H](C)[C@@](O)(O2)C(=O)C(=O)N2CCCC[C@H]2C(=O)O[C@H]([C@H](C)C[C@@H]2CC[C@@H](OC(=O)NCCOCCOCCOCCOCCOCCOCCOCCOCCC(=O)N3CCc4cc(Cn5nc(-c6ccc7oc(N)nc7c6)c6c(N)ncnc65)ccc4C3)[C@H](OC)C2)C[C@@H](O)[C@H](C)/C=C(\C)[C@@H](O)[C@@H](OC)C(=O)[C@H](C)C[C@H](C)/C=C/C=C/C=C/1C` has a Cmax of 332 nM (human patients, plasma; intravenous, 8 mg, cycle 1 day 15, weekly dosing, mean).
`C=CC(=O)N(C)CCOc1c(N)ncnc1-c1cc(F)cc(NC(=O)c2ccc(C3CC3)cc2F)c1C` has a Cmax of 245 ng/mL (human, whole blood; oral, 200 mg single dose).
With `COc1cc(N2CCC(N3CCN(C)CC3)CC2)ccc1Nc1ncnc(Nc2ccccc2S(=O)(=O)C(C)C)n1` the Cmax was 137 ng/mL (human, plasma; oral, 75 mg, day 1).
For `CCOc1c([C@H](C)n2nc(C)c3c(N)ncnc32)cc(Cl)c(F)c1[C@@H]1CNC(=O)C1`, the Cmax was 1310 ± 290 nM (human patients; oral, 15 mg once daily, cycle 1 day 15, monotherapy).
With `CC(C)[C@H](N)C(=O)NCCCS(=O)(=O)O` the Cmax was 10400 ng/mL (human, plasma; oral, 340 mg once daily days 8-14, day 14, fasted, capsule).
For `C[C@@H]1CCO[C@H]2Cn3cc(C(=O)NCc4ccc(F)cc4F)c(=O)c(O)c3C(=O)N12`, the Cmax was 2650 ng/mL (human paediatric patients, weight sample B to under sample C kg, plasma; oral, 20 mg film-coated tablet, steady state, geometric mean, population PK post-hoc, N 2).
With `COc1ncc(-c2nc3c(n2C(C)C)[C@H](c2ccc(Cl)cc2)N(c2cc(Cl)cn(C)c2=O)C3=O)c(OC)n1` the Cmax was 212 ng/mL (LC-MS/MS; human, plasma; oral, 25 mg, cycle 2 day 1, low-dose arm).

A few entries again:
With `COc1cc(N2CCC(N3CCN(C)CC3)CC2)ccc1Nc1ncnc(Nc2ccccc2S(=O)(=O)C(C)C)n1` the Cmax was 137 ng/mL (human, plasma; oral, 75 mg, day 1).
